# Experimental data of several laboratories.
# Compare with care: the assays were run in different laboratories. ± marks the error that the study gave.
SMILES,cell line,test,conditions,IC50 [µM]
COc1c(O)cc2oc3cc4c(c(O)c3c(=O)c2c1CC=C(C)C)C=CC(C)(C)O4,SW480,cell growth or viability,48 h,17.4
CCn1cc(/C=C/c2ccc3ccccc3[n+]2CC)c2ccccc21,HFF,"cell growth or viability, MTT",24 h,> 20
CC1=C2[O][Ru-]([Cl])[O+]=C2C=CN1CCCCCCN1C=CC2=[O+][Ru-]([Cl])[O]C2=C1C.Cc1ccc(C(C)C)cc1.Cc1ccc(C(C)C)cc1,SISO,"cell growth or viability, crystal violet",96 h,9.5
CCOC12C(O)C(OC)C3(O)CC(C1C3OC(=O)c1ccccc1)C13C(OC)CC(O)C4(COC)CN(C)C1C2C(OC)C43 (stereo not shown),HBE,"cell growth or viability, MTT",,30.2
COC(=O)[C@H]1[C@H]2C[C@H]3O[C@@]4(CCN3C[C@H]2C[C@@H](OC(=O)c2cc(OC)c(OC)c(OC)c2)[C@@H]1OC)C(=O)Nc1cc(OC)c(-c2ccc(C(F)(F)F)cc2)cc14,RS4-11,"cell growth or viability, trypan blue",72 h,1.95
Cc1cc(C#N)cc(C)c1Oc1cc(Nc2ccc(C#N)cn2)nc2cnccc12,HuCC-A1,,48 h,> 127
Cc1cc(N)c2cc(NC(=O)CCCCC(=O)Nc3ccc4nc(C)cc(N)c4c3)ccc2n1,CHO wild type,"FGF2 binding to heparan sulfate, inhibitor, flow cytometry","on ice, with: biotinylated FGF2 2.5 nM",8.4 ± 1.2
N=C(N/N=C/c1cc(C(F)(F)F)cc(C(F)(F)F)c1)N/N=C/c1cc(C(F)(F)F)cc(C(F)(F)F)c1,KP-4,"cell growth or viability, crystal violet",72 h,134
COc1ccc2cc3[n+](cc2c1OCc1cn(Cc2ccc(OC(F)(F)F)cc2)nn1)CCc1cc2c(cc1-3)OCO2,SW1990,"cell growth or viability, MTT",,29
CC(=O)O[C@@H]1CC[C@@]2(C)[C@@H](CC[C@]3(C)[C@@H]2C(=O)C=C2[C@@H]4[C@@H](C)[C@H](C)CC[C@]4(C)CC[C@]23C)[C@@]1(C)C(=O)NCCNC(=O)CCBr,HBE,"cell growth or viability, MTT",48 h,8.06
CCOP(=O)(OCC)C(Cc1ccc(F)cc1)Nc1ccc(Cl)cc1 (stereo not shown),T98G,"cell growth or viability, MTT",48 h,73.5
Cc1cn([C@@H]2O[C@H](CSSc3ccccn3)[C@@H](O)[C@H](F)[C@H]2O)c(=O)[nH]c1=O,Molt4/C8,cell growth or viability,,84
CC1OC(OCC2OC(Oc3cc(O)c4c(=O)cc(-c5ccc(O)c(O)c5)oc4c3)C(O)C(O)C2O)C(O)C(O)C1O (stereo not shown),HCT-116 p53-/- colon cancer,"cytotoxicity, resazurin reduction",72 h,> 100
CC(=O)O[C@@H]1CC[C@@]2(C)[C@@H](CC[C@]3(C)[C@@H]2C(=O)C=C2[C@@H]4[C@@H](C)[C@H](C)CC[C@]4(C)CC[C@]23C)[C@@]1(C)C(=O)NCCNC(=O)C1CC1,HBE,"cell growth or viability, MTT",48 h,18.5
CCN(CC)CCNC(=O)c1c(C)[nH]c(/C=C2\C(=O)Nc3ccc(F)cc32)c1C,T98G,"cell growth or viability, MTT",72 h,3
CCNC(=O)OCc1c(COC(=O)NCC)c(-c2ccc(OC)cc2)n2c1Cc1ccccc1-2,CL25,"cell growth, Alamar Blue",72 h,17.1 ± 3.2
Cc1cc(C)c(-n2c3c([n+](-c4c(C)cc(C)cc4C)[c]2[Cu-][Cl])-c2cccc4cccc-3c24)c(C)c1,2008,"cell growth, MTT",72 h,3 ± 2
CC(C)Cc1ccc(C(C)C(=O)[O][Pt]([NH2])([NH2])([Cl])([Cl])[O]C(=O)C(Cl)Cl)cc1 (stereo not shown),LoVo,"cell growth or viability, MTT",72 h,0.285
CC(C)c1cccc(C(C)C)c1N1CCN(c2c(C(C)C)cccc2C(C)C)C1=[Se].[Cl][Ag],human ovarian cancer cells,"cell viability, MTT",72 h,3.5 ± 0.8

# Repeated from above:
SMILES,cell line,test,conditions,IC50 [µM]
CC(=O)O[C@@H]1CC[C@@]2(C)[C@@H](CC[C@]3(C)[C@@H]2C(=O)C=C2[C@@H]4[C@@H](C)[C@H](C)CC[C@]4(C)CC[C@]23C)[C@@]1(C)C(=O)NCCNC(=O)CCBr,HBE,"cell growth or viability, MTT",48 h,8.06
